Results from different studies.
A part holds a random share of what one study measured.

Block 1 — technique: protein-binding microarray; form: double-stranded DNA, one strand shown; sample: in vitro; tested at: 940 nM top; setting: 60-bp whole probe; together with: salmon DNA 0.4 mg/ml; relative to: random background probes; direction: higher = stronger binding; all sequences stand within: GCCTAGCAC … GTCTTGATTCGCTTGACGCTGCTG
Target: Interferon regulatory factor 5, full length, phosphomimetic (IRF5, Homo sapiens, UniProt Q13568-2, residues 1-514, S451D/S453D/S456D/S462D)
| Oligonucleotide | fitted relative affinity |
| --- | --- |
| CTGCTGGCCTGTTGCTGGAAGTGCTAG | -0.522 z-score |
| TTAGCTCTCCTTATCCTTTAGTGCTAG | 0.852 z-score |
| TTAGATATCGGGTTTCGTTTAGTGCTA | 3.61 z-score |
| AGAAACTTGTGTTTGTCCCTGTGCTAG | 1.94 z-score |
| CTTAACCTGGGTCTCTGAAGGTGCTAG | -0.345 z-score |
| CCCAGGGTCTGTTTGGGTCTGTGCTAG | -0.768 z-score |
| GACGATTCCAATTTCGAGACGTGCTAG | 0.868 z-score |
| TTAGGACTGGGGTATCGTTTAGTGCTA | 1.29 z-score |
| TCAGTTCTTAGCTTGGGACTGTGCTAG | -0.246 z-score |
| TTAGATTTCGGCACTGGATTAGTGCTA | 0.461 z-score |
| GACGGTAACCTTTTCCTGACGTGCTAG | 0.0403 z-score |
| GACGGGCTGGACACTGGGGACGTGCTA | -0.765 z-score |
| TTAAGTATCGGGTTTCGGTTAGTGCTA | 8.04 z-score |
| TCAAATCTCTCTTCACAACTGTGCTAG | 1.13 z-score |
| TTAGATCTGAGACTGGATTAGTGCTAG | -0.193 z-score |
| GACGGACGGGGGTATCGGGACGTGCTA | 3.1 z-score |
| TTAGGTATCGGTCTCCGTTAGTGCTAG | 10.4 z-score |
| GACGGTTGCGACTATCGGGACGTGCTA | 0.545 z-score |
| TTAGATTTCGGGACTGGATTGGTGCTA | 0.513 z-score |
| GACGATCTCAGACTGTAGACGTGCTAG | -0.292 z-score |

Block 2 — technique: RNA Bind-n-Seq; form: RNA; sample: in vitro; tested at: 365 nM; relative to: no-protein control; direction: higher = stronger binding
Target: RNA binding protein fox-1 homolog 2, RRM domain, GST-SBP tag (RBFOX2, Homo sapiens, UniProt O43251-10, residues 100-194)
Setting: natural RNA segment, single round, ends assumed
All sequences stand within: GGGAGUUCUACAGUCCGACGAUC … UGGAAUUCUCGGGUGCCAA
Target sequence (chain): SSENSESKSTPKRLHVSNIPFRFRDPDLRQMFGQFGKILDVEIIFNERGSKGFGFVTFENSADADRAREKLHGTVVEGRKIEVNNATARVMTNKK
| Oligonucleotide | RBNS enrichment (R) |
| --- | --- |
| AAUCUUGGCAUGUGCACAUUCCUCAGAGGUACCAGGUAUUCCCAGCCAUGCAUCUCUGUGGGAAGAUAGAAGAAUCUCAUGCUCUGCAGUUACAUAGGUAGCAAGGGUUU | 0.567 |
| AGUAAGGGAAGAGGUCCUCUGGCCCCCUGAAGAUGAGAAUCACCCCUCUCAGUGCACCUGGGGAUCCCCCUAAACUGUGAAUUCUGCCCUGGACAGGGCUUUGCCCUUGG | 0.272 |
| CCCUCCCCGCAACCCUGCCCCACCUUGCAUCCAGGGUAUGGUGUAAAUAAACCUGUGUUGCCAUGGCAACAGAGACCGGCGGUACCUGCCCCAAGCAAAGGACACCCCUG | 1.39 |
| GUGGACAUCAUCGACAGGAACAAUCACCAUAACAUGGUUAGAUGCUGCGGCCUCCGGAGCGCUUUCUCUGAAGCGACUGCACGUUCCUGCUGCUCUCCGAUCUCAUCAGA | 0.325 |
| AAAAACUUGUAAAAUAACUGACCCUCCCUUCCUGUCCGCCCUCUUCCCCUCUAAUGCUCACGCUCCCAACACAAGGUGGGCAGGGAGGCACCAUUCAGGAACCUGGACCA | 0.491 |
| GGAUUUUUAUCCCCACAUAACCAGGGGCCAUCUGAAAGUCAUUUUCUAGCCAGAUCAGCCACUGAGCGGUAAGCAUCAGCGCUCAGCAGAGCCUUCCGAGCAGCAUUUAG | 4.63 |
| CCAAGAGGCCAAACUUCUAGGUGAAGUUUCUAGACACCUUAAUAUGAACAGAGCUAGACCUGAGCCAGUAAACAGUCUAAACCAGAAUAUGCCUUAUUUAUGUAUUCAUG | 0.476 |
| CUCUACCAUGGUUCUGCCUCCUGGCCAAGCAGGCUGGUUUGCAAGAAUGAAAUGAAUGAUUCUACAGCUAGGACUUAACCUUGAAAUGGAAAGUCAUGCAAUCCCAUUUG | 1.07 |
| GUAGCUGCAGAGGGGGGAGGCCAAGGGUUUGGUCUAAGCUGUGCCCUGCCACCUGGCAGGAGGCCCACUCACUGCCCAAGUCAUGGCAACAGGCUGGAGCAGCCCAGGAG | 0.288 |
| CCCUCACUCCCUUUUUUGUCAACCCCAUCUGUAGCCUCUUCCUCUACUCAGGCAGUCGACCCGCCACGAUGAGAAGUGGGACCAGCAGAGGGCGCCAACUUCAGGAGUCC | 0.414 |
| CUGCAGAGUAUAGGGGCCUGAAAGUUUUAUGAAACGGGUGUAAUAUCUCCUCUGCCUGUGACUUGGGUGGGACUGUCAUUGUGGGUAGCCAUUUAUUGAAUUCAACUUUU | 0.675 |
| AACCCCAGCGGGCCCUCUGGAGUCCGCCCUGCCCCUCCCCCGGCCCCCCAUCCCUCACUUCUGGGCUGUCAUGCUCCUGGUGUGCCCCUUGCACUGGGGCUGGCUGGGUU | 0.474 |

Block 3 — technique: RNAcompete; form: RNA; sample: in vitro; tested at: 20 nM; setting: 7-mer, probes averaged, single round; relative to: mean of 7-mers; direction: higher = stronger binding
Target: PABPC1L2, full length, GST fusion (mouse, UniProt A0ABA7IW68)
Construct (chain): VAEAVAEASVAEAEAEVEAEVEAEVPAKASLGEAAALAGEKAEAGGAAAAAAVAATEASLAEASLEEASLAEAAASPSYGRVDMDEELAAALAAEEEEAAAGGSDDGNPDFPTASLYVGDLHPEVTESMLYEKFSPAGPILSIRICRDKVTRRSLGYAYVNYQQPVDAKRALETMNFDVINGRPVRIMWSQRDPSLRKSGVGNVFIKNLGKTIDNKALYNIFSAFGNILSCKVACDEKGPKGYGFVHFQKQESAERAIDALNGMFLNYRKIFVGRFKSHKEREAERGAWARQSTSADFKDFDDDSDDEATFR
| Oligonucleotide | 7-mer Z-score |
| --- | --- |
| UGGAUCG | 0.0189 |
| CCCCAAA | 0.198 |
| GUUAAGA | 0.0569 |
| GGGACCC | -0.186 |
| UGCCUCU | -0.36 |
| CUGUUUU | -0.514 |
| AUCAUGA | -0.11 |
| GAUACGU | -0.251 |
| GUUGAUU | 0.0279 |
| AUGCUGG | 0.0605 |
| CCUAUUG | -0.333 |
| CUGUUGC | -0.458 |
| GAACUCG | -0.179 |
| UGGGUGC | 0.017 |
| UGGACCU | -0.15 |
| UCUGCCC | -0.322 |

Block 4 — technique: universal PBM; form: double-stranded DNA, one strand shown; sample: in vitro; tested at: not given; direction: higher = stronger binding
Target: Sal-like protein 4, full length isoform B (SALL4, Homo sapiens, UniProt Q9UJQ4-2, residues 1-616)
Setting: 8-mer, flanks averaged, mean of replicates
Residues (chain): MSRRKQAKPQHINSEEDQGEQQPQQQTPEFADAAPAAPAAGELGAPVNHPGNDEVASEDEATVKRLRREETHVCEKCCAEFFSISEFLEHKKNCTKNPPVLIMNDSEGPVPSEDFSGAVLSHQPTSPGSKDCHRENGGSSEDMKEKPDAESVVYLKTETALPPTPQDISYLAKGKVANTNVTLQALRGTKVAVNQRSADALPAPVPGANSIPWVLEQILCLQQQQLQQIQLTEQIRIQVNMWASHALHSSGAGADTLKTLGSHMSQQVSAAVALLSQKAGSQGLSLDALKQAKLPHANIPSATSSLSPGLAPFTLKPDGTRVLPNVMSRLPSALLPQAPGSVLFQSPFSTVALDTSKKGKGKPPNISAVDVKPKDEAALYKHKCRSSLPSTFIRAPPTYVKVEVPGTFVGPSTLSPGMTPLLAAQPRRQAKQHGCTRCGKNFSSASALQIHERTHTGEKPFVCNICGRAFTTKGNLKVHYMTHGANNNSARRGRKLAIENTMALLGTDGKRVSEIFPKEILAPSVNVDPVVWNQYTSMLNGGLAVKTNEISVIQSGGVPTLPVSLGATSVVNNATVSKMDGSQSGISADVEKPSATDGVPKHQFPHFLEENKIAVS
| Oligonucleotide | E-score |
| --- | --- |
| AATCAACG | 0.126 |
| CCGGTCGA | -0.395 |
| CATCGTCA | 0.0638 |
| GGAGCTAC | -0.144 |
| ATGGTTAC | 0.159 |
| ATAGGAAA | 0.29 |
| CCCGTACC | -0.291 |
| AACTAGTC | 0.146 |
| CCCTTGCC | -0.248 |
| AACGGCAA | 0.0653 |
| GCTACCTA | 0.0408 |
| CGCTTTTC | -0.0714 |
| ATGAAGAG | 0.174 |
| GGCCCGTA | -0.251 |
| ACGAGTTA | 0.147 |
| AAGACCTA | 0.0237 |
| ATTATTCA | 0.357 |

Block 5 — technique: protein binding microarray; form: double-stranded DNA, one strand shown; sample: in vitro; tested at: not given; relative to: not given; direction: higher = stronger binding
Target: Histone acetyltransferase KAT6A, winged helix 1, GST fusion (KAT6A, Homo sapiens, UniProt Q92794, residues 1-85)
Setting: 8-mer, flanks averaged, mean of 2 arrays, mostly near background
Construct (chain): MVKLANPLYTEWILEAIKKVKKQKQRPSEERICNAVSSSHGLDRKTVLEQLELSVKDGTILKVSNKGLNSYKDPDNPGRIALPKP
| Oligonucleotide | E-score |
| --- | --- |
| CACCATGA | 0.11 |
| ACCGCGCA | 0.411 |
| ATATTGTC | 0.0617 |
| CCCACGTC | -0.1 |
| CCAATATA | -0.0921 |
| CCTGTAGA | -0.13 |
| ACGGTGCA | -0.01 |
| CTGCGAAA | -0.052 |
| GACTTCAA | -0.144 |
| AACCGCCC | 0.169 |
| AAGGGCGG | 0.168 |
| CACGAAGG | 0.0563 |
| AAGGCTGC | -0.0695 |
| CCGGCAAA | 0.234 |
| TAACTGTA | -0.143 |
| GATCATAC | 0.00596 |
| GGATTCGA | -0.0849 |
| CGTAATCA | 0.049 |
| GGTCTCGA | -0.0189 |
| CTAGTATA | -0.0221 |
| CATCTCAC | -0.0824 |
| TCTCCTAA | -0.328 |
| CGACACCA | -0.0413 |
| AATTCAGG | -0.0711 |
| GGGACACA | -0.211 |
